Measurements gathered from unrelated publications.
Parts stem from different laboratories: compare values within a part only.

Study 1 — technique: universal PBM; molecule type: double-stranded DNA, one strand shown; sample: in vitro; tested at: not given; reading: higher = stronger binding; measurement: E-score
Target: Sal-like protein 4, full length isoform B (SALL4, Homo sapiens, UniProt Q9UJQ4-2, residues 1-616)
Notes: 8-mer, flanks averaged, mean of replicates
Residues (chain): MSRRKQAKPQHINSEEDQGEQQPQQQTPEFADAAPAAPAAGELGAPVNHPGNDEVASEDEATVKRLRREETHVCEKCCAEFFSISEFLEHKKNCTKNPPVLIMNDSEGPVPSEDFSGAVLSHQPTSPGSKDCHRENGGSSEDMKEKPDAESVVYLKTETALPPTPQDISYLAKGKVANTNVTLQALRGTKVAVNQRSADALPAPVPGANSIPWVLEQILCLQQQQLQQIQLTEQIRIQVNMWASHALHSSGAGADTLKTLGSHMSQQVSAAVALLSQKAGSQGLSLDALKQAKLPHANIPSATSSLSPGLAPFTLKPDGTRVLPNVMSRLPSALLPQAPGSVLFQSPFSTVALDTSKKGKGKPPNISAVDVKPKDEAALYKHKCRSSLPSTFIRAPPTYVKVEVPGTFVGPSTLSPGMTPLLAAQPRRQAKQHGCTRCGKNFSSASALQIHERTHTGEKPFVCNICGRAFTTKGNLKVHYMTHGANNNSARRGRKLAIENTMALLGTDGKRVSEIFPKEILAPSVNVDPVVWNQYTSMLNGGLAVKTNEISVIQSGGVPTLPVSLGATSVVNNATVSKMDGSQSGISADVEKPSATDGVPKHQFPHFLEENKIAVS
AGAACCTA: -0.0004
CAGCCGGA: -0.248
TCCGGGCA: -0.307
AACTAGGA: 0.111
AGCGAAGC: -0.246
CGCTAAAC: -0.0126
AGAAACTG: -0.194
ACTGGGAG: -0.294
ATGAGGTG: -0.0291
AGAGCCTC: -0.215
ATAGCCAC: 0.0168
AGATACGG: -0.0284
CCCCACGC: -0.182
ACGTCGAG: -0.181
ACACTTTA: 0.183
AGTCCGTA: -0.0225

Study 2 — technique: RNA Bind-n-Seq; molecule type: RNA; sample: in vitro; tested at: 200 nM; notes: whole 134-nt RNA, ends assumed; added: 150 mM KCl; relative to: input library; reading: higher = stronger binding; measurement: log2 enrichment
Target: Ras GTPase-activating protein-binding protein 1, full length (G3BP1, Homo sapiens, UniProt Q13283)
Chain of UniProt Q13283 (whole entry, looked up): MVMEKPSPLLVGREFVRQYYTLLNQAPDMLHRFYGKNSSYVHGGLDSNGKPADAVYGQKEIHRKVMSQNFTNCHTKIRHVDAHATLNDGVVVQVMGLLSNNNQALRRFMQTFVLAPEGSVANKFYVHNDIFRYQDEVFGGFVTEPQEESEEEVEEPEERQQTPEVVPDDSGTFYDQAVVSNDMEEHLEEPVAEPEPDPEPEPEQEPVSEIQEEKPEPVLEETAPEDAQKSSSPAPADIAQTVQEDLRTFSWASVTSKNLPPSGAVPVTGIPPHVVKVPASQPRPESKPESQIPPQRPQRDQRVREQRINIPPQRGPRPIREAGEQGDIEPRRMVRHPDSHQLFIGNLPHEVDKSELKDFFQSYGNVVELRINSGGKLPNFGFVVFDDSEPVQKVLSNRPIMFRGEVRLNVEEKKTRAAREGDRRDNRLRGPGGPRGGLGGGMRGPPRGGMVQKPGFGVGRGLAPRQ
Constant ends, left off below: GGGAGUUCUACAGUCCGACGAUC … UGGAAUUCUCGGGUGUCAAGG
UGGUAAGAAAUCUGCUUGUUUUAUUAAAAUGCUUAAUUGAAGAAAAUAAUAUUCUUCUGUGAUUAAAAUUAGGAAGAAAUAGAACCAUUU: -1.58
GCAGGAAGUAAAAACAAAUGGAACUGCUUCGGAUAGUGGCAGGGGUGGGGGUUGCUAAGGAAAGGGUGGGAUGGGAGUGGGUAAAGAGUU: 1.06
UAGCUUUAGAGGAGGAUCUGAUGGAUAUGGCAGUGGACGUGGAUUUGGGGAUGGCUAUAAUGGGUAUGGAGGAGGACCUGGAGGUGGCAA: 0.293
ACCAUGCAGGUGGGCAUCUUUGGGAAGUGGGGCAAGGGGGGGAUAGGGAGGGGGGUAACACUUUGGGAACAGGUGGUCACAGGUCGUUUC: 1.78
CUCAAGUCCUGUGCUACACAUCGUAUGUACCGAAUCGGUUGGGGUUGGUUGGGAAAGUAUUAUGUUACGCCGUUCGGAUCUGCACUUCCA: -0.0658
CCUGUGCUACACAUCGUAUGUACCGAAUCAAAUUUUUAAACCCCCCCAAACCCCCCCAAAAAAGUAUUAUGUUACGCCGUUCGGAUCUGC: 0.0669
AAGUCCUGUGCUACACAUCGUAUGUACCGAAUCGGGCCCGGGCCCGGGGCCCGGGGAAAGUAUUAUGUUACGCCGUUCGGAUCUGCACUU: -1.01
CUCAAGUCCUGUGCUACACAUCGUAUGUACCGAAUCGGGUGGGUGGGAAAGGGAAAGUAUUAUGUUACGCCGUUCGGAUCUGCACUUCCA: 1.09
UCAAGUCCUGUGCUACACAUCGUAUGUACCGAAUCGGAAAAGGAAAAGGAAAAGGAAAGUAUUAUGUUACGCCGUUCGGAUCUGCACUUC: -1.21

Study 3 — technique: RNA Bind-n-Seq; molecule type: RNA; sample: in vitro; tested at: 365 nM; relative to: no-protein control; reading: higher = stronger binding; measurement: RBNS enrichment (R)
Target: RNA binding protein fox-1 homolog 2, RRM domain, GST-SBP tag (RBFOX2, Homo sapiens, UniProt O43251-10, residues 100-194)
Notes: natural RNA segment, single round, ends assumed
Constant ends, left off below: GGGAGUUCUACAGUCCGACGAUC … UGGAAUUCUCGGGUGCCAA
Construct (chain): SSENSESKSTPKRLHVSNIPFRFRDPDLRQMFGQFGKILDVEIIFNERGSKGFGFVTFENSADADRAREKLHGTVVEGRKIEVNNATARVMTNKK
GUUUGUUGUAUGAACCAAGUGGUUUGAAGACUUGCUGCCAAAUUCUGCCUUUUGGGUCAGUAUAGGAUGCAUAAGUGGUAGAAUCUUCACACUUCCCACUGCCAAGAUUU: 1.83
UUUUUAACAAAUUUGCAUGUCAGUUUCUGUCAUGUUUAUUUAUUGGAUUCUCAGCUGCCUAAUCUGUACAUACCUGAUCCCUCGGGUUUUGUUUACAAGGAAUCUUGACU: 0.212
UGAAGUAGAAGUAGAUUGUUGGAUUGCAAAGAAAAUGAUAAAGAUUCCCUAAAGGAAUUUAUAAGCAGGCAACUUCAUUCCUAUGUAUAAGAUAUUGGGAGAAAACAAAC: 0.57
AGGAAAGAAGGGGUUGCUUUAUGGAUAAGCCUGUAGAAUCGGCUGCUUCCUAUGACUCCCUGGCUGCACAAGAAGAAAUUGUCUGUCUUCCAUAUAUGCUUCUAAGUAUC: 0.857
UGCUGGUGAUUUAACCAGUGCUUGGAAAAAUCUUGCUUGGCUAUUUCUGCAUCAUUUCUUAAGGCUGCCUUCCUCUCUCAGUACGUUGCCCUCUGUGCUAUCAUCUUAUC: 1.13
GAAAAAACUUAAAAAUUAAUAUGGUGUAUUUUUCCAAAUGAAAAAUCUCAAUUGAAAGCUUUUAAAAUGUAGAAACUUAAACACACCUUCCUGUGGAGGCUGAGAUGAAA: 0.628
ACCUAAUUAUCCAGCAUAUAUGUAAGAAACAUAGCAGCGAUGGUAUUCGAUCUGUGCCAUGACUCUUCUGAAUGUUUGGACAGGUUAGAGUUGGGGACCCCUGUUGGCCA: 0.4
UUCUCUGGAGCACCCUAUUUGCUUGGCUCUUUCUGGAAGUAGGUCUCACCCAUGAGGGACAACAGGUGACUCAGAAAGGCAGUGUCACAACUAGAACACUCUGCCUUGGU: 0.312

Study 4 — technique: protein-binding microarray; molecule type: double-stranded DNA, one strand shown; sample: in vitro; tested at: 2200 nM top; notes: 60-bp whole probe; added: salmon DNA 0.4 mg/ml; relative to: random background probes; reading: higher = stronger binding; measurement: fitted relative affinity; constant ends, left off below: GCCTAGCAC … GTCTTGATTCGCTTGACGCTGCTG
Target: Interferon regulatory factor 7, full length, phosphomimetic (IRF7, Homo sapiens, UniProt Q92985, residues 1-503, S471D/S472D/S475D/S476D/S477D/S483D/S484D/S487D)
Chain of UniProt Q92985 (whole entry, unmodified, looked up): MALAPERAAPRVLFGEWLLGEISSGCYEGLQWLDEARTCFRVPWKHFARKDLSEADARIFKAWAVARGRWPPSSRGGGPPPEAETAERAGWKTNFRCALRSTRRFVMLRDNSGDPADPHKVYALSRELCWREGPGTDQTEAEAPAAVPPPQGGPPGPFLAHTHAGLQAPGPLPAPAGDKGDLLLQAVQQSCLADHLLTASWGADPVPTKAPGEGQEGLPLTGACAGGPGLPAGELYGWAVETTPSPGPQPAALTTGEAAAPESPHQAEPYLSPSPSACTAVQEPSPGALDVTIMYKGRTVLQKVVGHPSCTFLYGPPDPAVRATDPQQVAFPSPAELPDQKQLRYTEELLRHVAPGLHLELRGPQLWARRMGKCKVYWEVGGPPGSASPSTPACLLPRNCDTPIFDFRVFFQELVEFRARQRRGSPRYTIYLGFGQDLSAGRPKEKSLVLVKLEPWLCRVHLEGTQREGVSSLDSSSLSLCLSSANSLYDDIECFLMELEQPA
TTAGGTTTCGGACTGCGTTAGTGCTAG: 3.62 z-score
TCATATGTACTCTCTCCAACTGTGCTA: 1.69 z-score
GACGGTATCCTTATCCTGAGGTGCTAG: 0.3 z-score
TAAGGTATCGACACTGGGTTAGTGCTA: -0.348 z-score
GACGGATTGGGTTTCGGGACGTGCTAG: 1.65 z-score
TCAGTTTTACAATTTGCACTGTGCTAG: 1.55 z-score
GACGATATGGGGTTTCGAGACGTGCTA: 1.58 z-score
GATGGACTGGGGTTTCGGGACGTGCTA: 0.695 z-score
GACAAACTGGGGTTTCGAGACGTGCTA: 1.37 z-score
GACGGACTGCTTCTCGTGACGTGCTAG: 0.238 z-score
TTAGATATCAGTCTCGATGAGTGCTAG: 0.007 z-score
TTTGAACTGGGGTTTCGATTAGTGCTA: 2.52 z-score
TGTTTTTTGGTTTCTGGTTTGTGCTAG: 5.63 z-score
GACGGTTTCCAACTGCTGACGTGCTAG: 1.84 z-score
AGTATGTTCCCTATTTAAGGGTGCTAG: 0.933 z-score
TTAGGACTGGACACTGGGTGAGTGCTA: -0.819 z-score
GACGGTTTCGGGCTTCGGGACGTGCTA: 3.6 z-score
TTCGATCTCAGACTGGATTAGTGCTAG: 0.597 z-score
GACGGTTTCGGGCCTGGGGACGTGCTA: 2.2 z-score

Some of these lines once more (study 2):
ACCAUGCAGGUGGGCAUCUUUGGGAAGUGGGGCAAGGGGGGGAUAGGGAGGGGGGUAACACUUUGGGAACAGGUGGUCACAGGUCGUUUC: 1.78
UAGCUUUAGAGGAGGAUCUGAUGGAUAUGGCAGUGGACGUGGAUUUGGGGAUGGCUAUAAUGGGUAUGGAGGAGGACCUGGAGGUGGCAA: 0.293
GCAGGAAGUAAAAACAAAUGGAACUGCUUCGGAUAGUGGCAGGGGUGGGGGUUGCUAAGGAAAGGGUGGGAUGGGAGUGGGUAAAGAGUU: 1.06
UCAAGUCCUGUGCUACACAUCGUAUGUACCGAAUCGGAAAAGGAAAAGGAAAAGGAAAGUAUUAUGUUACGCCGUUCGGAUCUGCACUUC: -1.21
UGGUAAGAAAUCUGCUUGUUUUAUUAAAAUGCUUAAUUGAAGAAAAUAAUAUUCUUCUGUGAUUAAAAUUAGGAAGAAAUAGAACCAUUU: -1.58
CCUGUGCUACACAUCGUAUGUACCGAAUCAAAUUUUUAAACCCCCCCAAACCCCCCCAAAAAAGUAUUAUGUUACGCCGUUCGGAUCUGC: 0.0669
CUCAAGUCCUGUGCUACACAUCGUAUGUACCGAAUCGGGUGGGUGGGAAAGGGAAAGUAUUAUGUUACGCCGUUCGGAUCUGCACUUCCA: 1.09
CUCAAGUCCUGUGCUACACAUCGUAUGUACCGAAUCGGUUGGGGUUGGUUGGGAAAGUAUUAUGUUACGCCGUUCGGAUCUGCACUUCCA: -0.0658
